Assay results collected from several papers.
A part holds a random share of what one study measured.
UniProt P07333, sequence (whole entry, looked up): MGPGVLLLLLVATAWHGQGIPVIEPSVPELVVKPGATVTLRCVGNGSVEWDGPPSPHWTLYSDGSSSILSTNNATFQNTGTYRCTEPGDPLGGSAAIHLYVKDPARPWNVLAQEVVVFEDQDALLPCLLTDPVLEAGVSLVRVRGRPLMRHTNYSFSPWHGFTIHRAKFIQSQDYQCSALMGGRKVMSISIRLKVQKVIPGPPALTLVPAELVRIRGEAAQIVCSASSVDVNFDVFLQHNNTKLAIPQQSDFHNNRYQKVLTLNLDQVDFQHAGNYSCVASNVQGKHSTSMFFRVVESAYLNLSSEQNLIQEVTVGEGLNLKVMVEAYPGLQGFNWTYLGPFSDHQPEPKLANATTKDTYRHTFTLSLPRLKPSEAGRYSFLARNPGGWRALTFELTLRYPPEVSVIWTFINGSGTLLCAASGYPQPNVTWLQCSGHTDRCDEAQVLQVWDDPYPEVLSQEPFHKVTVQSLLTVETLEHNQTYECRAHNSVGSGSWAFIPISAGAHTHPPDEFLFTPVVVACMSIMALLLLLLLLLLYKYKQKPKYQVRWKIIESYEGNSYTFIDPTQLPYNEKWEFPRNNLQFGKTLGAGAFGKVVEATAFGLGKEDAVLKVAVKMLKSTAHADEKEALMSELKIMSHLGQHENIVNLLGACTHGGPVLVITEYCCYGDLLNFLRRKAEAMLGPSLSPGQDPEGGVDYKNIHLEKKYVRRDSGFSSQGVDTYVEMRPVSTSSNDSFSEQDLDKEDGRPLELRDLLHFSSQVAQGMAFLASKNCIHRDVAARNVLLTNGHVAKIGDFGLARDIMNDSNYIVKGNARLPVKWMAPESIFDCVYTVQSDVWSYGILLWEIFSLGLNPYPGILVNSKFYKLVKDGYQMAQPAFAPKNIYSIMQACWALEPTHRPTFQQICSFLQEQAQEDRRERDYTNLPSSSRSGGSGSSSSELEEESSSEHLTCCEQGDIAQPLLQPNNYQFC
UniProt Q13163, sequence (whole entry, looked up): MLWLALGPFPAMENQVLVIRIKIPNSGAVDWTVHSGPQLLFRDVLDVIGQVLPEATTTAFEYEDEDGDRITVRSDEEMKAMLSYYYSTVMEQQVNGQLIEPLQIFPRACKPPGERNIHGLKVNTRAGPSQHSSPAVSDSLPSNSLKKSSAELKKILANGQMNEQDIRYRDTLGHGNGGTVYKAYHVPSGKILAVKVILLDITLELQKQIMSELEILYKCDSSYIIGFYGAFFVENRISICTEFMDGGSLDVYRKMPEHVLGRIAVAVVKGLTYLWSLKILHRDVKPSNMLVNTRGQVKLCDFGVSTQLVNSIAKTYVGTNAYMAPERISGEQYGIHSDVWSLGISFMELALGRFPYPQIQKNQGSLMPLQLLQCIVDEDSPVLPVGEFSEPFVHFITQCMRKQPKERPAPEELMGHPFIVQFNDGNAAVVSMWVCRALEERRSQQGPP
UniProt Q9P289, sequence (whole entry, looked up): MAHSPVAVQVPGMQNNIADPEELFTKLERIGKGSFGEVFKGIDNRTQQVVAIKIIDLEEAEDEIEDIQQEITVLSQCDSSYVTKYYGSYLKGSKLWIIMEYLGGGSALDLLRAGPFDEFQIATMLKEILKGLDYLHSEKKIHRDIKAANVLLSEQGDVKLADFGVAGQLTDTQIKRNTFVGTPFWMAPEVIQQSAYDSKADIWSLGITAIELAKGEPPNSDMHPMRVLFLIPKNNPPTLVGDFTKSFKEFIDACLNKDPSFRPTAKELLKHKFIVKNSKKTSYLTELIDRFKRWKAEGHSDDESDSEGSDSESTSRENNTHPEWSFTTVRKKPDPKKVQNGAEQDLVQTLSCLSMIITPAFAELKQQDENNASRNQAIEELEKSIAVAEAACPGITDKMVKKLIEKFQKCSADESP
UniProt P53779, sequence (whole entry, looked up): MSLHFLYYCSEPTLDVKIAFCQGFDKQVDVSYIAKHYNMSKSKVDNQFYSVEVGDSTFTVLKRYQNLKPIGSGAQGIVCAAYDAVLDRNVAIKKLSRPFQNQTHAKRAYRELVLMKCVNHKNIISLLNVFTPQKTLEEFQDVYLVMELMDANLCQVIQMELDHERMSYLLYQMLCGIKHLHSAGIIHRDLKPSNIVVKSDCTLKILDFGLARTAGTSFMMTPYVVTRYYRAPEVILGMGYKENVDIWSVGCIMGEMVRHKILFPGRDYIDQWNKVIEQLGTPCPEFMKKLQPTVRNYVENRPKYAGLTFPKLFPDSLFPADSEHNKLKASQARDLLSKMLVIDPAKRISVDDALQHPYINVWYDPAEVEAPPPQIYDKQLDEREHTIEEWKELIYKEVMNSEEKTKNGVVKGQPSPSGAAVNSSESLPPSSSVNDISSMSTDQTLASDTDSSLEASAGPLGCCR
UniProt P42336, sequence (whole entry, looked up): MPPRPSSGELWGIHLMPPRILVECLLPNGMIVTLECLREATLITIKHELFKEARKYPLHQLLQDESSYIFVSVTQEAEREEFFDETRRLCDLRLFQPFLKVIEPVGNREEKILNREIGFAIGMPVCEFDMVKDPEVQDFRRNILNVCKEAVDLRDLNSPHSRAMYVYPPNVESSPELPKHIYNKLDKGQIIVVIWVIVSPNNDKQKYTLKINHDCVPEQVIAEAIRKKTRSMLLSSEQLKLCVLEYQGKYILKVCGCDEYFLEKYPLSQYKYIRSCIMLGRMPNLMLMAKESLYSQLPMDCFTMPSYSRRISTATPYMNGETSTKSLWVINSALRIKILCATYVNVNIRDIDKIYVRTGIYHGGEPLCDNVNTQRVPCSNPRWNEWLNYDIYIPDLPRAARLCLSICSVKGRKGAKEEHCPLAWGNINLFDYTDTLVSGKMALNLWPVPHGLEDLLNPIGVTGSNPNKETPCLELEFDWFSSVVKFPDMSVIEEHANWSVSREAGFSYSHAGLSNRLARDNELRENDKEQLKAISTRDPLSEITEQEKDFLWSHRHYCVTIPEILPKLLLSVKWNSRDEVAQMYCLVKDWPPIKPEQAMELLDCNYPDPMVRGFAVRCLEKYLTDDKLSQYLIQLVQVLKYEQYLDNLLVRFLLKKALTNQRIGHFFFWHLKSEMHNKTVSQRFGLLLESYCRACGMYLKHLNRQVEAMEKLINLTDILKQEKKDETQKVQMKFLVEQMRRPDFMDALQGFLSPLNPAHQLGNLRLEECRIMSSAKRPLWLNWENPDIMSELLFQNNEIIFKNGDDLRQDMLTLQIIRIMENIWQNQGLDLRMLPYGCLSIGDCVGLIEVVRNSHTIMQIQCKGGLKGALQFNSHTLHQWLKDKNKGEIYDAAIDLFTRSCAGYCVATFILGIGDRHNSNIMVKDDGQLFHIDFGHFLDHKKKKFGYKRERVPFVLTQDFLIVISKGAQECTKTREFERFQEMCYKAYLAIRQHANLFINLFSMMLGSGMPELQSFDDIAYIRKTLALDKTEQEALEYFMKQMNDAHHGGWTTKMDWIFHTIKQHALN
UniProt P24723, sequence (whole entry, looked up): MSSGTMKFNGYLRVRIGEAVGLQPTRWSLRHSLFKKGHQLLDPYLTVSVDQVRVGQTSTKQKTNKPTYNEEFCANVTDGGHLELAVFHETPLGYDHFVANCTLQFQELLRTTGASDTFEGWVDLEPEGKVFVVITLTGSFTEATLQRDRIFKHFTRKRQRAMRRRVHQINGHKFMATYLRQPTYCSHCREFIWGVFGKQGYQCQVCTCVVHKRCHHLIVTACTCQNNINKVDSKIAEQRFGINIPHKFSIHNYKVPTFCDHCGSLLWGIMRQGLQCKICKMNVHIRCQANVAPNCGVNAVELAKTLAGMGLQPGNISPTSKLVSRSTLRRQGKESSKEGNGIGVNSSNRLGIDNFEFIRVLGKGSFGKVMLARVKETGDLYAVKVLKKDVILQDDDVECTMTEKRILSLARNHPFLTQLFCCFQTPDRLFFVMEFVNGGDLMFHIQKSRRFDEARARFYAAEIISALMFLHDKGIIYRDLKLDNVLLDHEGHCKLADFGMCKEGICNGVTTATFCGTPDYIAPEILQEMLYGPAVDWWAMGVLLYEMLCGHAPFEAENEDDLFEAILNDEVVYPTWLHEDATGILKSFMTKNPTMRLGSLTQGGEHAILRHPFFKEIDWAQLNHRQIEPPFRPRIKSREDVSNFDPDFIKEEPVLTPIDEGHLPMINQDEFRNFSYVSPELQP

Sample 1
Compound: O=S(=O)(NC1CCC(c2cc(F)ccc2F)(S(=O)(=O)c2ccc(Cl)cc2)CC1)C(F)(F)F (stereo not shown)
Effect on: cell-free assay
Technique: competition with immobilised ligand
Tested at: 1 µM
COQ8B (Homo sapiens, UniProt Q96D53) — remaining binding: 88%.
For PDPK1 (Homo sapiens, UniProt O15530): remaining binding read 100%.
The remaining binding was 100% (LCK (Homo sapiens, UniProt P06239)).
PIK3CA (Homo sapiens, UniProt P42336) — remaining binding: 100%.
The remaining binding was 91% (ERBB2 (Homo sapiens, UniProt P04626)).
It gave 100% for remaining binding (GRK4 (Homo sapiens, UniProt P32298)).
PHKG1 (Homo sapiens, UniProt Q16816) — remaining binding: 80%.
PRKCH (Homo sapiens, UniProt P24723) — remaining binding: 99%.
For MAPK14 (Homo sapiens, UniProt Q16539): remaining binding read 100%.
For PRKD2 (Homo sapiens, UniProt Q9BZL6): remaining binding read 79%.
The remaining binding was 100% (MAP3K10 (Homo sapiens, UniProt Q02779)).
The remaining binding was 100% (TBK1 (Homo sapiens, UniProt Q9UHD2)).
MAPK10 (Homo sapiens, UniProt P53779) — remaining binding: 67%.
STK26 (Homo sapiens, UniProt Q9P289) — remaining binding: 85%.
WNK2 (Homo sapiens, UniProt Q9Y3S1) — remaining binding: 77%.
It gave 68% for remaining binding (CDK16 (Homo sapiens, UniProt Q00536)).
Tyrosine-protein kinase ABL1, non-phosphorylated (ABL1, Homo sapiens, UniProt P00519, Q252H) — remaining binding: 95%.
For MAPK9 (Homo sapiens, UniProt P45984): remaining binding read 73%.
The remaining binding was 100% (PIK3CG (Homo sapiens, UniProt P48736)).
The remaining binding was 100% (HUNK (Homo sapiens, UniProt P57058)).
CASK (Homo sapiens, UniProt O14936) — remaining binding: 68%.
It gave 90% for remaining binding (Tyrosine-protein kinase ABL1, phosphorylated (ABL1, Homo sapiens, UniProt P00519, F317L)).
PAK6 (Homo sapiens, UniProt Q9NQU5) — remaining binding: 100%.
For MAP2K5 (Homo sapiens, UniProt Q13163): remaining binding read 52%.
NEK1 (Homo sapiens, UniProt Q96PY6) — remaining binding: 100%.

Sample 2
Target: Calcium/calmodulin-dependent protein kinase type II subunit alpha (CAMK2A, Homo sapiens, UniProt Q9UQM7)
UniProt Q9UQM7, sequence (whole entry, looked up): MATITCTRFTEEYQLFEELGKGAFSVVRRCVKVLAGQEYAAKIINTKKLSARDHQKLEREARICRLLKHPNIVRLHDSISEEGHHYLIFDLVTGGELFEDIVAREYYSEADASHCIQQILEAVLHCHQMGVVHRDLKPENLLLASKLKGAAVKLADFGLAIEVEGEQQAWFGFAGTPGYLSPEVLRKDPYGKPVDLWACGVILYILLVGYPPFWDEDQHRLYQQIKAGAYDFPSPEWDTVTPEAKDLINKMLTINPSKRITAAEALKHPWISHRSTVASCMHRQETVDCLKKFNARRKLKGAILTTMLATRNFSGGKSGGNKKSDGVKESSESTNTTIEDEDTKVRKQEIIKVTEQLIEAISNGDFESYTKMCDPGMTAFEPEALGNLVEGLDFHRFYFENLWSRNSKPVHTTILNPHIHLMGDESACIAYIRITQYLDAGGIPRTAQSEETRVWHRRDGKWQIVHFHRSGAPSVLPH
Effect on: enzyme activity
Action: inhibitor
Tested at: 10 µM
`CCNC(=O)[C@@H]1CCCN1C(=O)[C@H](CCCN=C(N)N)NC(=O)[C@H](CC(C)C)NC(=O)CNC(=O)[C@H](Cc1ccc(O)cc1)NC(=O)[C@H](CO)NC(=O)[C@H](Cc1c[nH]c2ccccc12)NC(=O)[C@H](Cc1cnc[nH]1)NC(=O)[C@@H]1CCC(=O)N1` has an inhibition of 5%.
`CCCCCCCCC[C@H](O)CC(=O)CCc1ccc(O)c(OC)c1` has an inhibition of 10%.
With `Oc1ccc(OCc2ccccc2)cc1` the inhibition was 1%.
`COc1cc(-c2cc(=O)c3c(O)c(OC)c(O)cc3o2)cc(O)c1OC` has an inhibition of 31%.
`O=C(O)c1ccccc1Nc1cccc(C(F)(F)F)c1` gave an inhibition of 4%.
With `CC(C)c1nc(N(C)S(C)(=O)=O)nc(-c2ccc(F)cc2)c1/C=C/[C@@H](O)C[C@@H](O)CC(=O)O` the inhibition was -4%.
`COC1=C2C[C@@H](C)C[C@H](OC)[C@H](O)[C@@H](C)/C=C(\C)[C@H](OC(N)=O)[C@@H](OC)/C=C\C=C(/C)C(=O)NC(=CC1=O)C2=O` has an inhibition of 17%.
For `CN(C)CC/C=C1/c2ccccc2COc2ccc(CC(=O)O)cc21`, the inhibition was 2%.
`COc1cc2oc(=O)ccc2cc1CC=C(C)C` has an inhibition of -30%.
The inhibition of `CCCC(=O)O[C@]1(C(=O)COC(C)=O)CC[C@H]2[C@@H]3C[C@H](F)C4=CC(=O)C=C[C@]4(C)[C@@]3(F)[C@@H](O)C[C@@]21C` is reported as 3%.
`CCCCC(=O)OCC(=O)[C@H]1[C@H](C)C[C@H]2[C@@H]3C[C@H](F)C4=CC(=O)C=C[C@]4(C)[C@@]3(F)[C@@H](O)C[C@@]21C` gave an inhibition of -7%.

Sample 3
SMILES: COc1ccc2[nH]c3c4[nH]c5ccc(OC)cc5c4c4c(c3c2c1)C(=O)NC4=O
Tested at: 1 µM
MYLK2 (Homo sapiens, UniProt Q9H1R3); competitive binding panel; reference: vehicle — remaining binding: 82%.
BRSK2 (Homo sapiens, UniProt Q8IWQ3); competitive binding panel; reference: vehicle — remaining binding: 6.2%.
The remaining binding was 86% (EPHA4 (Homo sapiens, UniProt P54764); competitive binding panel; reference: vehicle).
It gave 84% for remaining binding (AKT2 (Homo sapiens, UniProt P31751); competitive binding panel; reference: vehicle).
For FGFR1 (Homo sapiens, UniProt P11362); competitive binding panel; reference: vehicle: remaining binding read 100%.
It gave 93% for remaining binding (BMPR2 (Homo sapiens, UniProt Q13873); competitive binding panel; reference: vehicle).
For MAP3K20 (Homo sapiens, UniProt Q9NYL2); competitive binding panel, measured: ZAK; reference: vehicle: remaining binding read 100%.
It gave 62% for remaining binding (CSNK1A1 (Homo sapiens, UniProt P48729); competitive binding panel; reference: vehicle).
It gave 59% for remaining binding (CSF1R (Homo sapiens, UniProt P07333); competitive binding scan; autoinhibited form).

Sample 4
Target: Megakaryocyte-associated tyrosine-protein kinase (MATK, Homo sapiens, UniProt P42679)
UniProt P42679, sequence (whole entry, looked up): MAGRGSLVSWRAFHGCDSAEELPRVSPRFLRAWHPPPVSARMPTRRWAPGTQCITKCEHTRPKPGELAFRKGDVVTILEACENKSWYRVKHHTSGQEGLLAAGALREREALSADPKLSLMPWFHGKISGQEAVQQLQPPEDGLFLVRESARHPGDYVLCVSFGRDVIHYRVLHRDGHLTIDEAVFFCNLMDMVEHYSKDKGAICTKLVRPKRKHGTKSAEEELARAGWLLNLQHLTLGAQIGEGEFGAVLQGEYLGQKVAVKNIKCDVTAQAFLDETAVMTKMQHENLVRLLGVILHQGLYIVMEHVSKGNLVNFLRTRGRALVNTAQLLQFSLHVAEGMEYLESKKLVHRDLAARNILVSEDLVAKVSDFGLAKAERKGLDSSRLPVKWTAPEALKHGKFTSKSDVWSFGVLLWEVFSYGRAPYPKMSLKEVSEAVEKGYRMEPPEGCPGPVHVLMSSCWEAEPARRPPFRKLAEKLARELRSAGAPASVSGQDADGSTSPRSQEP
Effect on: enzyme activity
Action: inhibitor
Tested at: 0.5 µM
Reference: control
For `CCN(CC)CCNC(=O)c1c(C)[nH]c(/C=C2\C(=O)Nc3ccc(Cl)cc32)c1C`, the remaining activity was 96.8%.
For `N#Cc1c(NC(=O)c2cccc3ccccc23)sc2c1CCCC2`, the remaining activity was 92.7%.
With `c1ccc(-c2[nH]ncc2-c2ccnc3ccccc23)nc1` the remaining activity was 87.9%.
`CCOc1nc(NC(=O)Cc2cc(OC)ccc2OC)cc(N)c1C#N` has a remaining activity of 88.6%.
The remaining activity of `COc1cc2c(cc1OC)-c1[nH]nc(Nc3cccc(F)c3)c1C2` is reported as 92.1%.
The remaining activity of `CCN(CC)CCNC(=O)c1c(C)[nH]c(/C=C2\C(=O)Nc3ccc(F)cc32)c1C` is reported as 88.8%.
With `COc1cc2ncnc(Nc3cccc(Cl)c3)c2cc1OC` the remaining activity was 103%.
The remaining activity of `c1ccc(-c2cnc(Nc3ccc(OCCN4CCCC4)cc3)s2)cc1` is reported as 94.3%.
`Cc1cc2ncc(-c3ccccc3)nc2cc1C` has a remaining activity of 95.4%.
`O=C1c2ccccc2-c2n[nH]c3cccc1c23` has a remaining activity of 107%.
`CN(C)C[C@H]1CCn2c(c(C3=C(c4cn(C)c5ccccc45)C(=O)NC3=O)c3ccccc32)C1` gave a remaining activity of 95%.
For `N#C/C(=C\c1ccc(O)c(O)c1)C(=O)NCc1ccccc1`, the remaining activity was 86.3%.
`Cc1cn(-c2cc(NC(=O)c3ccc(C)c(Nc4nccc(-c5cccnc5)n4)c3)cc(C(F)(F)F)c2)cn1` has a remaining activity of 79.2%.
For `O=C(Nc1cccc(Nc2nccc(Nc3cccc(C(F)(F)F)c3)n2)c1)C1CC1`, the remaining activity was 101%.
`C[C@@H]1CCN(C(=O)CC#N)C[C@@H]1N(C)c1ncnc2[nH]ccc12` has a remaining activity of 66.9%.
The remaining activity of `Cn1nc2c3c(cccc31)C(=O)c1ccccc1-2` is reported as 88%.
With `CCN(CC)C(=O)c1ccc(Nc2nc(OCC3CCCCC3)c3[nH]cnc3n2)cc1` the remaining activity was 95.6%.
The remaining activity of `Nc1cccc(-c2cc3c(Oc4cccc(O)c4)ncnc3[nH]2)c1` is reported as 97.8%.
`O=c1cc(-c2cccc3c2Sc2ccccc2S3)oc(N2CCOCC2)c1` gave a remaining activity of 102%.
`Cc1nc2cc3nc(-c4cccs4)cnc3cc2n1C` gave a remaining activity of 100%.
`CN([C@@H](Cc1ccc(OS(=O)(=O)c2cccc3cnccc23)cc1)C(=O)N1CCN(c2ccccc2)CC1)S(=O)(=O)c1cccc2cnccc12` has a remaining activity of 94.8%.
`Ic1cccc(CSc2nnc(-c3ccncc3)o2)c1` gave a remaining activity of 94.3%.
`COc1cc2ncnc(Nc3ccc(O)c(Br)c3)c2cc1OC` has a remaining activity of 98%.
`O=C1C(Cl)=C(N2C(=O)CCC2=O)C(=O)c2ccccc21` has a remaining activity of 88%.
`O=C(NC(NC(=S)Nc1ccc(F)c([N+](=O)[O-])c1)C(Cl)(Cl)Cl)C(c1ccccc1)c1ccccc1` (stereo not shown) gave a remaining activity of 96.5%.

Repeated from above (sample 1):
For MAPK14 (Homo sapiens, UniProt Q16539): remaining binding read 100%.
For PRKD2 (Homo sapiens, UniProt Q9BZL6): remaining binding read 79%.
The remaining binding was 100% (MAP3K10 (Homo sapiens, UniProt Q02779)).
The remaining binding was 100% (TBK1 (Homo sapiens, UniProt Q9UHD2)).
MAPK10 (Homo sapiens, UniProt P53779) — remaining binding: 67%.
STK26 (Homo sapiens, UniProt Q9P289) — remaining binding: 85%.
WNK2 (Homo sapiens, UniProt Q9Y3S1) — remaining binding: 77%.
